Measured values of several laboratories.
Lines come from different studies, so protocols differ. ± gives the spread as reported. Converted amounts (≈) assume the structure as drawn.

Cc1cc(N(CCOS(C)(=O)=O)CCOS(C)(=O)=O)ccc1C(=O)O has a Cmax of 18000 ng/mL (mouse, plasma; intravenous, 20 mg/kg of bendamustine, as bendamustine equivalents).
O=C(Nc1ccccc1)c1cc([N+](=O)[O-])ccc1Cl has an AUC(0-last) of 42.8 ng·h/mL (LC-MS/MS; Sprague-Dawley rat, male, plasma; intravenous, 2.5 mg/kg).
The Cmax of Cc1cc(N(CCCl)CCCl)ccc1C(=O)O is reported as 48 ng/mL (mouse CD2F1, plasma; iv, 20 mg/kg of bendamustine).
CCCCCCCCCCCCCCCC(=O)NCCCC[C@H](NC(=O)CNC(=O)[C@H](CO)NC(=O)CNC(=O)[C@H](CCC(N)=O)NC(=O)[C@H](Cc1c[nH]cn1)NC(=O)[C@H](Cc1c[nH]c2ccccc12)NC(=O)[C@H](CC(N)=O)NC(=O)CNC(=O)[C@@H](NC(=O)[C@H](CO)NC(=O)[C@H](CC(=O)O)NC(=O)[C@H](CC(C)C)NC(=O)[C@@H](NC(=O)[C@H](CCCCN)NC(=O)[C@H](CC(N)=O)NC(=O)[C@H](CO)NC(=O)[C@H](CCCNC(=N)N)NC(=O)[C@H](CCCNC(=N)N)NC(=O)[C@@H](NC(=O)[C@H](Cc1c[nH]c2ccccc12)NC(=O)[C@H](CCC(=O)O)NC(=O)[C@H](CCCCN)NC(=O)[C@H](CO)NC(=O)[C@H](CCC(=O)O)NC(=O)[C@H](CCC(=O)O)NC(=O)[C@H](CC(C)C)NC(=O)[C@H](CC(=O)O)NC(=O)[C@H](CCCCN)NC(=O)[C@H](CCCCN)NC(=O)[C@@H](NC(=O)[C@H](CCCCN)NC(=O)[C@H](CC(N)=O)NC(=O)[C@H](CC(C)C)NC(=O)[C@@H](NC(=O)[C@H](CCC(=O)O)NC(=O)[C@H](CO)NC(=O)[C@@H](NC(=O)[C@H](CC(=O)O)NC(=O)[C@@H](NC(=O)[C@@H]1CCCN1C(=O)[C@H](CC(=O)O)NC(=O)[C@H](CC(C)C)NC(=O)[C@H](C)NC(=O)[C@@H](N)C(C)C)[C@@H](C)CC)[C@@H](C)CC)C(C)C)[C@@H](C)CC)[C@@H](C)CC)[C@@H](C)CC)[C@@H](C)CC)C(=O)O gave a solubility of 4210 ± 60 µg/mL (≈ 780 µM) (PBS).
The Cmax of CC[C@@H](C(N)=O)N1CCCC1=O is reported as 22000 ng/mL (LC-MS/MS; rat, paraoxon-induced status epilepticus, whole blood; intramuscular, 50 mg/kg levetiracetam, added: atropine 5 mg/kg).
The plasma concentration of CCCSc1nc(N[C@@H]2C[C@H]2c2ccc(F)c(F)c2)c2nnn([C@@H]3C[C@H](OCCO)[C@@H](O)[C@H]3O)c2n1 is reported as 32.3 ± 56.7 ng/mL (STEMI patients, plasma; 180 mg loading dose, 1 h, added: morphine).
Under “degradation to non-isomer products”, C[C@H](NC(=O)[C@@H]1CCCN1C(=O)[C@H](CC(N)=O)NC(=O)[C@H](Cc1c[nH]c2ccccc12)NC(=O)[C@@H]1CSSC[C@H](NC(=O)CN)C(=O)N1)C(=O)N[C@H]1CSSC[C@@H](C(N)=O)NC(=O)[C@H](Cc2ccc(O)cc2)NC(=O)[C@H](Cc2c[nH]cn2)NC(=O)[C@H](CCCCN)NC(=O)CNC1=O is recorded as 58.3 ± 0.42% (RP-HPLC; mouse serum 25%; 50 µM, 6 h, 37 °C).
With CCCCCCCCCCCCCCCC(=O)NCCCC[C@H](NC(=O)CCOCCOCCOCCOCCNC(=O)CNC(=O)[C@H](CO)NC(=O)CNC(=O)[C@@H](NC(=O)[C@H](CO)NC(=O)[C@H](CC(=O)O)NC(=O)[C@H](CC(C)C)NC(=O)[C@@H](NC(=O)[C@H](CCCCN)NC(=O)[C@H](CC(N)=O)NC(=O)[C@H](CO)NC(=O)[C@H](CCCNC(=N)N)NC(=O)[C@H](CCCNC(=N)N)NC(=O)[C@@H](NC(=O)[C@H](Cc1c[nH]c2ccccc12)NC(=O)[C@H](CCC(=O)O)NC(=O)[C@H](CCCCN)NC(=O)[C@H](CO)NC(=O)[C@H](CCC(=O)O)NC(=O)[C@H](CCC(=O)O)NC(=O)[C@H](CC(C)C)NC(=O)[C@H](CC(=O)O)NC(=O)[C@H](CO)NC(=O)[C@H](CCCCN)NC(=O)[C@@H](NC(=O)[C@H](CCCCN)NC(=O)[C@H](CC(N)=O)NC(=O)[C@H](CC(C)C)NC(=O)[C@@H](NC(=O)[C@@H](NC(=O)[C@H](CO)NC(=O)[C@@H](NC(=O)[C@H](CC(=O)O)NC(=O)[C@@H](NC(=O)[C@@H]1CCCN1C(=O)[C@H](CC(=O)O)NC(=O)[C@H](CC(C)C)NC(=O)[C@H](C)NC(=O)[C@@H](NC(C)=O)C(C)C)[C@@H](C)CC)[C@@H](C)CC)[C@@H](C)CC)C(C)C)[C@@H](C)CC)[C@@H](C)CC)[C@@H](C)CC)[C@@H](C)CC)C(N)=O the solubility was 3820 ± 180 µg/mL (≈ 763 µM) (PBS).
The solubility of CC[C@H](C)[C@@H]([C@@H](CC(=O)N1CCC[C@H]1[C@H](OC)[C@@H](C)C(=O)NCCc1ccc(OP(=O)([O-])[O-])cc1)OC)N(C)C(=O)[C@@H](NC(=O)[C@H](C(C)C)N(C)C)C(C)C.[Li+].[Li+] is reported as > 65000 µg/mL (distilled water; 23 °C).
C=C(C)[C@@H]1[C@H]2OC(=O)[C@@H]1[C@]1(O)C[C@H]3O[C@]34C(=O)O[C@H]2[C@]14C: “time to death” 20 to 30 min (male NIH-NCI Swiss mice; intraperitoneal, 2 mg/kg).
The free indium-111 of Cc1cn(CC(=O)N(CCNC(=O)CN(CCNC(=O)CN(CCNC(=O)CN(CCNC(=O)CN(CCNC(=O)CN(CCNC(=O)CN(CCNC(=O)CN(CCNC(=O)CN(CCNC(=O)CN(CCNC(=O)COCCOCCNC(=O)COCCOCCNC(=O)[C@H](CNC(=O)[C@H](CNC(=O)[C@H](CNC(=O)[C@H](CNC(=O)COCCOCCNC(=O)CN2CCN(CC(=O)O)CCN(CC(=O)O)CCN(CC(=O)O)CC2)NC(=O)COCCOCCNC(=O)CN2CCN(CC(=O)O)CCN(CC(=O)O)CCN(CC(=O)O)CC2)NC(=O)[C@H](CNC(=O)COCCOCCNC(=O)CN2CCN(CC(=O)O)CCN(CC(=O)O)CCN(CC(=O)O)CC2)NC(=O)COCCOCCNC(=O)CN2CCN(CC(=O)O)CCN(CC(=O)O)CCN(CC(=O)O)CC2)NC(=O)[C@H](CNC(=O)[C@H](CNC(=O)COCCOCCNC(=O)CN2CCN(CC(=O)O)CCN(CC(=O)O)CCN(CC(=O)O)CC2)NC(=O)COCCOCCNC(=O)CN2CCN(CC(=O)O)CCN(CC(=O)O)CCN(CC(=O)O)CC2)NC(=O)[C@H](CNC(=O)COCCOCCNC(=O)CN2CCN(CC(=O)O)CCN(CC(=O)O)CCN(CC(=O)O)CC2)NC(=O)COCCOCCNC(=O)CN2CCN(CC(=O)O)CCN(CC(=O)O)CCN(CC(=O)O)CC2)NC(=O)[C@H](CNC(=O)[C@H](CNC(=O)[C@H](CNC(=O)COCCOCCNC(=O)CN2CCN(CC(=O)O)CCN(CC(=O)O)CCN(CC(=O)O)CC2)NC(=O)COCCOCCNC(=O)CN2CCN(CC(=O)O)CCN(CC(=O)O)CCN(CC(=O)O)CC2)NC(=O)[C@H](CNC(=O)COCCOCCNC(=O)CN2CCN(CC(=O)O)CCN(CC(=O)O)CCN(CC(=O)O)CC2)NC(=O)COCCOCCNC(=O)CN2CCN(CC(=O)O)CCN(CC(=O)O)CCN(CC(=O)O)CC2)NC(=O)[C@H](CNC(=O)[C@H](CNC(=O)COCCOCCNC(=O)CN2CCN(CC(=O)O)CCN(CC(=O)O)CCN(CC(=O)O)CC2)NC(=O)COCCOCCNC(=O)CN2CCN(CC(=O)O)CCN(CC(=O)O)CCN(CC(=O)O)CC2)NC(=O)[C@H](CNC(=O)COCCOCCNC(=O)CN2CCN(CC(=O)O)CCN(CC(=O)O)CCN(CC(=O)O)CC2)NC(=O)COCCOCCNC(=O)CN2CCN(CC(=O)O)CCN(CC(=O)O)CCN(CC(=O)O)CC2)C(=O)Cn2cnc3c(=O)[nH]c(N)nc32)C(=O)Cn2ccc(N)nc2=O)C(=O)Cn2ccc(N)nc2=O)C(=O)Cn2cnc3c(N)ncnc32)C(=O)Cn2cc(C)c(=O)[nH]c2=O)C(=O)Cn2ccc(N)nc2=O)C(=O)Cn2cnc3c(N)ncnc32)C(=O)Cn2cnc3c(=O)[nH]c(N)nc32)C(=O)Cn2ccc(N)nc2=O)CC(=O)NCCN(CC(=O)NCCN(CC(=O)NCCOCCOCC(=O)N[C@@H]2CSSC[C@H](C(N)=O)NC(=O)[C@@H](CCCCN)NC(=O)[C@@H](CO)NC2=O)C(=O)Cn2ccc(N)nc2=O)C(=O)Cn2ccc(N)nc2=O)c(=O)[nH]c1=O is reported as < 1% (radio-HPLC; mouse, ASPC1 xenograft, urine; intravenous, 3.5 h; baseline: radioactivity).
For C[C@H](Cc1ccc(O)c(O)c1)[C@@H](C)Cc1ccc(O)c(O)c1, the solubility was > 100000 µg/mL (ethanol; 24 h, room temperature).
CCCCCCCCCCCCCCCC(=O)NCCCC[C@H](NC(=O)CNC(=O)[C@H](CO)NC(=O)CNC(=O)[C@H](CCC(N)=O)NC(=O)[C@H](Cc1c[nH]cn1)NC(=O)[C@H](Cc1c[nH]c2ccccc12)NC(=O)[C@H](CC(N)=O)NC(=O)CNC(=O)[C@@H](NC(=O)[C@H](CO)NC(=O)[C@H](CC(=O)O)NC(=O)[C@H](CC(C)C)NC(=O)[C@@H](NC(=O)[C@H](CCCCN)NC(=O)[C@H](CC(N)=O)NC(=O)[C@H](CO)NC(=O)[C@H](CCCNC(=N)N)NC(=O)[C@H](CCCNC(=N)N)NC(=O)[C@@H](NC(=O)[C@H](Cc1c[nH]c2ccccc12)NC(=O)[C@H](CCC(=O)O)NC(=O)[C@H](CCCCN)NC(=O)[C@H](CO)NC(=O)[C@H](CCC(=O)O)NC(=O)[C@H](CCC(=O)O)NC(=O)[C@H](CC(C)C)NC(=O)[C@H](CC(=O)O)NC(=O)[C@H](CO)NC(=O)[C@H](CCCCN)NC(=O)[C@@H](NC(=O)[C@H](CCCCN)NC(=O)[C@H](CC(N)=O)NC(=O)[C@H](CC(C)C)NC(=O)[C@@H](NC(=O)[C@@H](NC(=O)[C@H](CO)NC(=O)[C@@H](NC(=O)[C@H](CC(=O)O)NC(=O)[C@@H](NC(=O)[C@@H]1CCCN1C(=O)[C@H](CC(=O)O)NC(=O)[C@H](CC(C)C)NC(=O)[C@H](C)NC(=O)[C@@H](N)C(C)C)[C@@H](C)CC)[C@@H](C)CC)[C@@H](C)CC)C(C)C)[C@@H](C)CC)[C@@H](C)CC)[C@@H](C)CC)[C@@H](C)CC)C(=O)O has a solubility of 7520 ± 410 µg/mL (≈ 1410 µM) (water).
Under “degradation to non-isomer products”, CC(C)C[C@H](NC(=O)[C@@H]1C[C@@H](O)CN1C(=O)[C@H](Cc1ccccc1)NC(=O)[C@H](CO)NC(=O)[C@H](C)NC(=O)[C@H](Cc1ccccc1)NC(=O)[C@@H](NC(=O)[C@H](CCC(=O)O)NC(=O)[C@H](Cc1c[nH]cn1)NC(=O)[C@@H](NC(=O)[C@@H](NC(=O)[C@H](CCC(N)=O)NC(=O)[C@H](C)NC(=O)[C@@H](N)CC(=O)O)[C@@H](C)O)C(C)C)C(C)C)C(=O)N[C@@H](CC(=O)O)C(=O)N[C@@H](CO)C(=O)N[C@@H](CC(=O)O)C(=O)NCC(=O)N[C@H]1CSSC[C@@H](C(N)=O)NC(=O)[C@H](Cc2ccc(O)cc2)NC(=O)[C@H](Cc2c[nH]cn2)NC(=O)[C@H](CCCCN)NC(=O)CNC(=O)[C@@H]2CSSC[C@H](NC1=O)C(=O)N[C@@H](Cc1c[nH]c3ccccc13)C(=O)N[C@@H](CC(N)=O)C(=O)N1CCC[C@H]1C(=O)N[C@@H](C)C(=O)N2 is recorded as 14.7 ± 0.86% (RP-HPLC; mouse serum 25%; 50 µM, 6 h, 37 °C).

A few entries again:
Cc1cc(N(CCOS(C)(=O)=O)CCOS(C)(=O)=O)ccc1C(=O)O has a Cmax of 18000 ng/mL (mouse, plasma; intravenous, 20 mg/kg of bendamustine, as bendamustine equivalents).
O=C(Nc1ccccc1)c1cc([N+](=O)[O-])ccc1Cl has an AUC(0-last) of 42.8 ng·h/mL (LC-MS/MS; Sprague-Dawley rat, male, plasma; intravenous, 2.5 mg/kg).
